# Experimental data pooled from the literature.
# Protocols differ between the studies behind these lines. “And” joins repeats or separate records; there may be more than shown. ± marks the error that the study gave.
Structure (SMILES),target or system,assay,test system,setting,scale,quantity,value
CCOC(=O)C1(Cc2ccc(-c3ccccc3)cc2)Oc2cc(F)ccc2N(Cc2ccc(-c3ccccc3)cc2)C1=O (stereo not drawn),Arabidopsis thaliana,"root length, petri dish germination","Col-0, 1/2 MS medium","50 µg/mL, 7 days, 22 °C, dark",,inhibition,42.3%
FC(F)(F)c1cccc(CNc2nc(NC3CCN(Cc4ccccc4)CC3)c3nc[nH]c3n2)c1,Cryptococcus neoformans,"RNA-seq, refers to: CNAG_03277",,"48 µg/mL, 3 h",relative to: untreated,mRNA fold change,1.5
CC[C@H](C)CCCCC(=O)N[C@@H](CCN)C(=O)N[C@H](C(=O)N[C@@H](CCN)C(=O)N[C@H]1CCNC(=O)[C@H]([C@@H](C)O)NC(=O)[C@H](CCN)NC(=O)[C@H](CCN)NC(=O)[C@H](CC(C)C)NC(=O)[C@@H](CC(C)C)NC(=O)[C@H](CCN)NC1=O)[C@@H](C)O,Escherichia coli,daily serial passaging,ATCC 8739,"highest sub-MIC, 26 days",relative to: initial MIC,MIC fold change,2.05
CN(C(=O)c1ccn2ncc(-c3ccc(C(N)=O)cc3)c2c1)c1ccc(C#N)cn1,Cryptosporidium parvum,,"UGA1 Nluc, IFN-gamma knockout C57BL/6 mice, faeces","oral, 10 mg/kg daily, 192 h post infection, treatment days 3-9",higher means more parasites,faecal Nluc luminescence,7 a.u. and 46 a.u. and 10 a.u. and 260 a.u. and 15 a.u.
O=C(c1ccc(-c2ccc3ncnc(Nc4ccc(OCc5cccc(F)c5)c(Cl)c4)c3c2)cc1)N1CCCCC1,Plasmodium falciparum,"parasite growth, SYBR Green fluorescence","W2, drug-resistant",,,EC50,880 nM
CC(C)[C@H]1NC(=O)[C@H](Cc2ccccc2)NC(=O)[C@@H](C(C)C)NC(=O)[C@@H](C)NC(=O)[C@H](CO)NC(=O)[C@@H](Cc2c(-c3ccc(-c4ccccc4)c4ccccc34)[nH]c3ccccc23)NC(=O)[C@@H](CO)NC1=O,Candida albicans,broth dilution,,,,MIC90,> 50 µM
C[C@H](NC(=O)[C@@H](O)c1cc(F)cc(F)c1)C(=O)N[C@@H]1C(=O)N(C)c2ccccc2-c2ccccc21,dengue virus 2,viral replication,Huh-7.5.1 overexpressing SPP,,relative to: SPP over control,EC50 fold increase,> 10 fold
COc1ccccc1-c1n[nH]c2nc(NC3CCN(C(=O)Cc4ccc(F)cc4F)CC3)ncc12,,"bead binding, competition bead pull-down, refers to: LINJ.32.3470",Leishmania donovani extract,10 µM,relative to: vehicle,relative abundance,0.95
CCOC(=O)C1(Cc2ccccc2)Oc2cc(OC)ccc2N(Cc2ccccc2)C1=O (stereo not drawn),Arabidopsis thaliana,"stem length, petri dish germination","Col-0, 1/2 MS medium","200 µg/mL, 7 days, 22 °C, dark",,inhibition,63.9%
CN1CCN(c2cccc(-c3ccc4ncnc(Nc5ccc(OCc6cccc(F)c6)c(Cl)c5)c4c3)c2)CC1,Plasmodium falciparum,"parasite growth, SYBR Green",D6,blood stage,,EC50,44 nM
[O-][N+]1=C(Cc2ccccc2)C2=NCCCN2c2ccccc21,Fusobacterium nucleatum,,,,,MIC90,4 µg/mL
O=S(=O)(c1ccc(-c2ccc3ncnc(Nc4ccc(OCc5ccccc5F)c(Cl)c4)c3c2)cc1)N1CCOCC1,Plasmodium falciparum,"parasite growth, SYBR Green fluorescence","C235 (TM91C235), drug-resistant",,,EC50,220 nM
C[C@H]1[C@@H](OCc2cn(-c3cc4ccc(O)cc4oc3=O)nn2)O[C@@H]2O[C@@]3(C)CC[C@H]4[C@H](C)CC[C@@H]1[C@@]24OO3,Plasmodium berghei,,"NK65/GFP, infected mice","oral gavage, 65 µmol/kg once daily, 96 h dosing period",,cured mice,0%
Cc1cc(C(=O)Nc2nc3cccc(C)c3n2[C@H]2CCCCN(C(=O)/C=C/CN(C)C)C2)ccn1,Trypanosoma brucei brucei,,2T1 parental,"5 x EC50, 36 h",relative to: time 0 h,cell growth,45.3% and 53.3% and 50%
CCOC(=O)C1(Cc2ccc(C#N)cc2)Oc2cc(F)ccc2N(Cc2ccc(C#N)cc2)C1=O (stereo not drawn),Arabidopsis thaliana,"root length, petri dish germination","Col-0, 1/2 MS medium","50 µg/mL, 7 days, 22 °C, dark",,inhibition,38.2%
[O-][N+]1=C(c2ccccc2)C2=NCCN2c2ccccc21,Fusobacterium nucleatum,microbial growth,,,,MIC50,≤ 0.06 µg/mL
CC(C)C[C@H](NC(=O)[C@H](Cc1ccccc1)NC(=O)[C@H](CCC(N)=O)NC(=O)[C@H](Cc1ccc(O)cc1)NC(=O)[C@H](CCCCN)NC(=O)[C@@H]1CCCN1C(=O)[C@H](CCCNC(=N)N)NC(=O)[C@H](CCC(N)=O)NC(=O)[C@H](Cc1c[nH]c2ccccc12)NC(=O)[C@H](CS)NC(=O)[C@H](Cc1c[nH]c2ccccc12)NC(=O)[C@H](Cc1ccccc1)NC(=O)[C@H](CCCNC(=N)N)NC(=O)[C@H](CCCCN)NC(=O)[C@H](CCCCN)NC(=O)[C@H](CCCCN)NC(=O)[C@@H](NC(=O)[C@@H](NC(=O)[C@H](CC(C)C)NC(=O)[C@@H](N)CO)C(C)C)[C@@H](C)O)C(=O)O,Micrococcus luteus,,NCTC 2665,,,MBC,8 µg/mL
Cc1ccc(NCCN(C)C)c2c(=O)c3cc(O)ccc3sc12,HIV-1 subtype C,viral replication,,96 h,,IC50,600 nM
CCOC(=O)C1(Cc2ccccc2)Oc2ccccc2N(Cc2ccccc2)C1=O (stereo not drawn),Arabidopsis thaliana,"stem length, petri dish germination","Col-0, 1/2 MS medium","200 µg/mL, 7 days, 22 °C, dark",,inhibition,64.9%
O=C(c1cccc(-c2ccc3ncnc(Nc4ccc(OCc5cccc(F)c5)c(Cl)c4)c3c2)c1)N1CCOCC1,Plasmodium falciparum,"parasite growth, SYBR Green",D6,blood stage,,EC50,760 nM
CCOC(=O)C1(Cc2cccc(C)c2)Oc2cc(F)ccc2N(Cc2cccc(C)c2)C1=O (stereo not drawn),Arabidopsis thaliana,"stem length, petri dish germination","Col-0, 1/2 MS medium","200 µg/mL, 7 days, 22 °C, dark",,inhibition,79.2%
CC1=C[C@@H](C)[C@H]2[C@@H]3C(=O)C(Cl)(Cl)C(=O)[C@H](C)C(=O)O[C@@H](C)/C=C/C=C\[C@@H](C)[C@@H]3C=C[C@@H]2C1,Staphylococcus aureus,,"Newman compound-resistant mutant Mt1, broth-selected",concentration not given,relative to: parent strain,MIC fold change,16
CN(C)S(=O)(=O)c1ccc(S(=O)(=O)N2CCC(n3c(=O)[nH]c4ccccc43)CC2)cc1,Klebsiella pneumoniae,,"∆mfd, mouse, intranasal infection, lung","intraperitoneal, 6 mg/kg, 24 h, nanoformulation",,lung bacterial load,5.73 log10 CFU/g and 5.85 log10 CFU/g and 5.19 log10 CFU/g and 5.38 log10 CFU/g
CC(=O)c1c(O)c(C)c(O)c2c1OC1=CC(=O)C(=C(C)NCCCCOC3OC4OC5(C)CCC6C(C)CCC(C3C)C46OO5)C(=O)C12C (mixture of isomers),Plasmodium berghei,,"ANKA GFP, NMRI mouse","oral, 4 x 3 mg/kg, day 4 post infection",,parasitaemia inhibition,0%
CN(C)S(=O)(=O)c1ccccc1-c1ccc2ncnc(Nc3ccc(OCc4cccc(F)c4)c(Cl)c3)c2c1,Plasmodium falciparum,"parasite growth, SYBR Green fluorescence","C235 (TM91C235), drug-resistant",,,EC50,1100 nM
CC(C)(C)C(=O)OCOP(=O)(OCOC(=O)C(C)(C)C)C1CCCN(O)C1=O (stereo not drawn),SF-539,,,,,log GI50,-5.82 log M
CC(C)[C@H]1NC(=O)[C@H](Cc2ccccc2)NC(=O)[C@@H](C(C)C)NC(=O)[C@@H](C)NC(=O)[C@H](CO)NC(=O)[C@@H](Cc2c(-c3ccc(-c4ccc(-c5ccccc5)cc4)cc3)[nH]c3ccccc23)NC(=O)[C@@H](CO)NC1=O,Candida albicans,broth dilution,,,,MIC90,> 50 µM
CCCCCCCC(=O)NCCCC[C@H](NC(=O)CCCCCCC)C(=O)N[C@@H](CCCCNC(=O)CCCCCCC)C(=O)NCC(=O)NCC(=O)NCC(=O)N[C@@H](CS)C(=O)N[C@@H](CCCNC(=N)N)C(=O)N[C@@H](CCCCN)C(=O)N1CCC[C@H]1C(=O)N[C@@H](CS)C(=O)N[C@@H](CCCNC(=N)N)C(=O)N[C@@H](CCCCN)C(=O)N1CCC[C@H]1C(=O)N[C@@H](CS)C(=O)N[C@@H](CCCNC(=N)N)C(=O)N[C@@H](CCCCN)C(=O)N1CCC[C@H]1C(=O)N[C@@H](CS)C(=O)N[C@@H](CCCNC(=N)N)C(=O)N[C@@H](CCCCN)C(=O)N1CCC[C@H]1C(N)=O,Candida albicans,broth microdilution,"SP 3903, RPMI-1640","48 h, 30 °C",,MIC,16 µM
CCN(CC)CCO.O=C(O)C(Cl)Cl,Xanthium sibiricum,,,"15 mg/mL, 21 days, pre-emergence, greenhouse",,herbicidal inhibition,0%
CN(C)c1nc(NCc2ccccc2F)c(/N=N/c2ccc(Cl)cc2)c(N(C)C)n1,Plutella xylostella,leaf dipping,,"200 mg/L, 96 h",,mortality,76.7 ± 5.8%
CCCCCCCC(=O)NCCCC[C@H](NC(=O)CCCCCCC)C(=O)N[C@@H](CCCCNC(=O)CCCCCCC)C(=O)NCC(=O)NCC(=O)NCC(=O)N[C@@H](CS)C(=O)N[C@@H](CCCNC(=N)N)C(=O)N[C@@H](CCCCN)C(=O)N1CCC[C@H]1C(N)=O,Candida albicans,broth microdilution,"CGMCC 2.209, RPMI-1640","48 h, 30 °C",,MIC,> 128 µM
C=CCN1C(=O)C(CC=C)(C(=O)OCC)Oc2cc(F)ccc21 (stereo not drawn),Arabidopsis thaliana,,"Col-0, seed germination, dark","200 µg/mL, 7 days, 22 °C",,root length inhibition,100%
O=C1NC2(CC2)COc2ncc(F)cc2[C@H]2COCCN2c2ccn3ncc1c3n2,,,"Sprague-Dawley rat, female, serum","oral, 5 mg/kg/day, end of treatment, 4-week subacute toxicity",,serum total bilirubin,0.8 ± 0.3 µmol/L
CC(C)C[C@H](NC(=O)[C@H](CC(C)C)NC(=O)[C@H](CCCCN)NC(=O)[C@H](Cc1ccccc1)NC(=O)[C@@H](NC(=O)[C@H](CCCNC(=N)N)NC(=O)[C@@H](N)CCCCN)C(C)C)C(=O)N[C@@H](CCCCN)C(=O)N[C@@H](CCCNC(=N)N)C(=O)N[C@@H](Cc1ccc(O)cc1)C(=O)N[C@@H](Cc1c[nH]c2ccccc12)C(=O)N[C@@H](CCCNC(=N)N)C(=O)N[C@@H](CCC(N)=O)C(=O)N[C@@H](CC(C)C)C(=O)N[C@@H](CCCCN)C(=O)N[C@@H](CCCCN)C(=O)N1CCC[C@H]1C(=O)N[C@H](C(=O)N[C@@H](CCCNC(=N)N)C(=O)NCCOCCOCC(=O)O)C(C)C,Pseudomonas aeruginosa and Staphylococcus aureus,confocal microscopy,mixed biofilm,"10 µM, 6 h, biofilm, pre-formed, 24 h",,eDNA content reduction,95.2%
CC(=O)c1c(O)c(C)c(O)c2c1OC1=CC(=O)C(=C(C)NCCCC(=O)OC3OC4OC5(C)CCC6C(C)CCC(C3C)C46OO5)C(=O)C12C (stereo not drawn),Plasmodium berghei,,"ANKA GFP, NMRI mouse","oral, 4 x 30 mg/kg, day 4 post infection",,parasitaemia inhibition,99.6%
CCc1nn(C)c2nc(-c3ccc(C(=O)O)cc3)nc(NCc3ccccc3)c12,Cryptosporidium parvum,,HCT-8,"3 x EC90, 48 h",relative to: DMSO control,parasite number,41.2% and 51.3% and 59.4% and 31.2%
CC(C)(C)OCc1ccc(-c2ccc3ncnc(Nc4ccc(OCc5cccc(F)c5)c(Cl)c4)c3c2)cc1,Plasmodium falciparum,"parasite growth, SYBR Green fluorescence","W2, drug-resistant",,,EC50,2200 nM
CCOC(=O)C1(Cc2ccccc2)Oc2cc(F)ccc2N(Cc2ccccc2)C1=O (stereo not drawn),Arabidopsis thaliana,,"Col-0, seed germination, dark","50 µg/mL, 7 days, 22 °C",,root length inhibition,56.9%
O=C(c1cccc(-c2ccc3ncnc(Nc4ccc(OCc5cccc(F)c5)c(Cl)c4)c3c2)c1)N1CCCC1,Plasmodium falciparum,"parasite growth, SYBR Green",D6,blood stage,,EC50,69 nM
CCOC(=O)C1(Cc2ccc([N+](=O)[O-])cc2)Oc2cc(F)ccc2N(Cc2ccc([N+](=O)[O-])cc2)C1=O (stereo not drawn),Arabidopsis thaliana,"stem length, petri dish germination","Col-0, 1/2 MS medium","50 µg/mL, 7 days, 22 °C, dark",,inhibition,35.1%
Cc1cc(-c2ccc3ncnc(Nc4ccc(OCc5cccc(F)c5)c(Cl)c4)c3c2)cnc1N1CCOCC1,Plasmodium falciparum,"parasite growth, SYBR Green",D6,blood stage,,EC50,260 nM
Cc1ccc(N2CC3CC(C2)N3C)cc1C(=O)NC1(c2ccc3c4c(cccc24)C(=O)N3C)CC1,Betacoronavirus 1,viral replication,"Huh-7, OC43",3 µM,,inhibition,0%

# Repeated from above:
Structure (SMILES),target or system,assay,test system,setting,scale,quantity,value
O=C(c1ccc(-c2ccc3ncnc(Nc4ccc(OCc5cccc(F)c5)c(Cl)c4)c3c2)cc1)N1CCCCC1,Plasmodium falciparum,"parasite growth, SYBR Green fluorescence","W2, drug-resistant",,,EC50,880 nM
CC(C)[C@H]1NC(=O)[C@H](Cc2ccccc2)NC(=O)[C@@H](C(C)C)NC(=O)[C@@H](C)NC(=O)[C@H](CO)NC(=O)[C@@H](Cc2c(-c3ccc(-c4ccccc4)c4ccccc34)[nH]c3ccccc23)NC(=O)[C@@H](CO)NC1=O,Candida albicans,broth dilution,,,,MIC90,> 50 µM
C[C@H](NC(=O)[C@@H](O)c1cc(F)cc(F)c1)C(=O)N[C@@H]1C(=O)N(C)c2ccccc2-c2ccccc21,dengue virus 2,viral replication,Huh-7.5.1 overexpressing SPP,,relative to: SPP over control,EC50 fold increase,> 10 fold
COc1ccccc1-c1n[nH]c2nc(NC3CCN(C(=O)Cc4ccc(F)cc4F)CC3)ncc12,,"bead binding, competition bead pull-down, refers to: LINJ.32.3470",Leishmania donovani extract,10 µM,relative to: vehicle,relative abundance,0.95
CCOC(=O)C1(Cc2ccccc2)Oc2cc(OC)ccc2N(Cc2ccccc2)C1=O (stereo not drawn),Arabidopsis thaliana,"stem length, petri dish germination","Col-0, 1/2 MS medium","200 µg/mL, 7 days, 22 °C, dark",,inhibition,63.9%
